Results of several laboratories.
Lines come from different studies, so protocols differ.
Organism: Mycobacteroides abscessus

For CN[C@@H]1[C@H](O)[C@H](NC)[C@H]2O[C@]3(O)[C@H](O[C@@H]2[C@H]1O)O[C@H](C)C[C@@]3(O)CNCCc1ccc(C)cc1, the MIC was 4 µg/mL (microbial growth; ATCC19977; 5 days).
CO[C@H]1/C=C/O[C@@]2(C)Oc3c(C)c(O)c4c(c3C2=O)C2=NC3(CCN(CC(C)C)CC3)NC2=C(NC(=O)/C(C)=C\C=C\[C@H](C)[C@H](O)[C@@H](C)[C@@H](O)[C@@H](C)[C@H](OC(=O)c2cccnc2)[C@@H]1C)C4=O gave an MIC ratio of 0.9 (ATCC 19977; baseline: wild type over arr deletion).
Under “intracellular accumulation ratio”, CN[C@@H]1[C@H](O)[C@H](NC)[C@H]2O[C@]3(O)[C@H](O[C@@H]2[C@H]1O)O[C@H](C)C[C@@]3(O)CNCCc1cccs1 is recorded as 8.3 fold (LC-MS/MS, item: intracellular compound; ATCC 19977; 100 µM, 30 min; baseline: compound over spectinomycin).
With CO[C@H]1/C=C/O[C@@]2(C)Oc3c(C)c(O)c4c(c3C2=O)C2=NC3(CCN(CC(C)C)CC3)NC2=C(NC(=O)/C(C)=C\C=C\[C@H](C)[C@H](O)[C@@H](C)[C@@H](O)[C@@H](C)[C@H](OC(=O)c2cccc(F)c2)[C@@H]1C)C4=O the MIC was 0.055 µM (ATCC 19977 wild type; 90% growth inhibition).
For CN[C@@H]1[C@H](O)[C@H](NC)[C@H]2O[C@]3(O)[C@H](O[C@@H]2[C@H]1O)O[C@H](C)C[C@@]3(O)CNCCc1ccc(F)cc1, “whiB7 regulon DEGs” read 92 (RNA sequencing; ATCC 19977; 1 µg/mL, 3 h, unit not given; baseline: untreated).
The IC50 of COC1C=COC2(C)Oc3c(C)c(O)c4c(c3C2=O)C2=NC3(CCN(CC(C)C)CC3)NC2=C(NC(=O)C(C)=CC=CC(C)C(O)C(C)C(O)C(C)C(OC(=O)Nc2cccnn2)C1C)C4=O (stereo not drawn) is reported as 40 nM (intracellular bacterial growth; THP-1 derived macrophages, ATCC 19977).
CCCCCCCCCC1N=C(N)N=C(N)N1c1ccccc1C.Cl (racemic) has a growth reduction of 40 fold (OD600; 50 µM; baseline: untreated).
With CO[C@H]1/C=C/O[C@@]2(C)Oc3c(C)c(O)c4c(c3C2=O)C2=NC3(CCN(CC(C)C)CC3)NC2=C(NC(=O)/C(C)=C\C=C\[C@H](C)[C@H](O)[C@@H](C)[C@@H](O)[C@@H](C)[C@H](OC(=O)c2nccs2)[C@@H]1C)C4=O the MIC was 0.017 µM (ATCC 19977 wild type; 90% growth inhibition).
For COC1C=COC2(C)Oc3c(C)c(O)c4c(c3C2=O)C2=NC3(CCN(CC(C)C)CC3)NC2=C(NC(=O)C(C)=CC=CC(C)C(O)C(C)C(O)C(C)C(OC(=O)c2cncnc2)C1C)C4=O (stereo not drawn), the IC50 was 17 nM (ATCC 19977; CAMHB).

Repeated from above:
For CN[C@@H]1[C@H](O)[C@H](NC)[C@H]2O[C@]3(O)[C@H](O[C@@H]2[C@H]1O)O[C@H](C)C[C@@]3(O)CNCCc1ccc(C)cc1, the MIC was 4 µg/mL (microbial growth; ATCC19977; 5 days).
